Measured values pooled from the literature.
Every numbered part comes from another study and shows a few of its results, in no order.

Study 1
Target: Interferon regulatory factor 3, full length, phosphomimetic (IRF3, Homo sapiens, UniProt Q14653, residues 1-427, S386D/S396D/S398D/S402D/T404D/S405D)
Method: protein-binding microarray
Form: double-stranded DNA, one strand shown
Matrix: in vitro
Concentration: 2540 nM top
Setting: 60-bp whole probe
Added: salmon DNA 0.4 mg/ml
Relative to: random background probes
Reading: higher = stronger binding
Quantity: fitted relative affinity
Constant ends, left off below: GCCTAGCAC … GTCTTGATTCGCTTGACGCTGCTG
Construct (chain): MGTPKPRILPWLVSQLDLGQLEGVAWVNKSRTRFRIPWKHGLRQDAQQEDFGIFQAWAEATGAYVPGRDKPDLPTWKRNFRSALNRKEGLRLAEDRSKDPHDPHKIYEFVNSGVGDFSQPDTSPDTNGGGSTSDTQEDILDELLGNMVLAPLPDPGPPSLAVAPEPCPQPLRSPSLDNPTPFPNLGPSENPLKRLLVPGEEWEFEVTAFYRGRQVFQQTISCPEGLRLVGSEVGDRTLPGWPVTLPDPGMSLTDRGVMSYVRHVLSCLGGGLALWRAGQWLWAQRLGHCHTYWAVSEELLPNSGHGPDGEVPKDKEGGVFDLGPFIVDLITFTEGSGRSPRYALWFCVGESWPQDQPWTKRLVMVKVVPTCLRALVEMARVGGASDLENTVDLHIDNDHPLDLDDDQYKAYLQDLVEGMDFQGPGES
ATCACTTTCCACTTGTCTTTGTGCTAG: 4.09 z-score
GACGGTCTCGGTCTCGGCACGTGCTAG: 1.39 z-score
GACGAACTGAGAATGGAGACGTGCTAG: 0.149 z-score
GACGGACTGGGGTTCCGGGACGTGCTA: -0.861 z-score
TCTATAATGGATATATATCAGTGCTAG: 0.238 z-score
TTAGAACTTGGGACTGGATTAGTGCTA: -0.658 z-score
AGTGTCTCCATCAGAGGAGAGTGCTAG: 0.0488 z-score
TCACCCATGAGTCTCAAACTGTGCTAG: -0.299 z-score
TTTTGCTTTCTTTTTGCACTGTGCTAG: 4.63 z-score
GACGGACTGGGGTTTCCGGACGTGCTA: 0.582 z-score

Study 2
Target: Histone acetyltransferase KAT6A, both winged helices, GST fusion (KAT6A, Homo sapiens, UniProt Q92794, residues 1-181)
Method: protein binding microarray
Form: double-stranded DNA, one strand shown
Matrix: in vitro
Concentration: not given
Setting: 8-mer, flanks averaged, mean of 2 arrays, mostly near background
Relative to: not given
Reading: higher = stronger binding
Quantity: E-score
Residues (chain): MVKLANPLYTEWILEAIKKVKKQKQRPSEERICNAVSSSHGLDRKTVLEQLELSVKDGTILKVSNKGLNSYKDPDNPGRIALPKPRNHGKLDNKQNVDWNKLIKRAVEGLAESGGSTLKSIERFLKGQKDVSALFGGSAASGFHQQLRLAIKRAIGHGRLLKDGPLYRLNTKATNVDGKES
GGGTGAGA: -0.105
GTGTAAAA: -0.113
CTCTCTAA: -0.18
ACGCGAGG: 0.142
TAGGCATA: -0.0716
ACATTGGC: -0.17
CAATCCAA: -0.00834
AGCGCTAC: 0.33
ATCGCACC: 0.0585
CACTCTCC: -0.0698
ACCAGTGC: -0.0698

Study 3
Target: Fragile X messenger ribonucleoprotein 1, C-terminal low-complexity region (Fmr1, Mus musculus, UniProt P35922)
Method: RNA Bind-n-Seq
Form: RNA
Matrix: in vitro
Concentration: 200 nM
Setting: whole 134-nt RNA, ends assumed
Added: 150 mM LiCl
Relative to: input library
Reading: higher = stronger binding
Quantity: log2 enrichment
All molecules: 7-deaza-guanosine replaces G
Constant ends, left off below: GGGAGUUCUACAGUCCGACGAUC … UGGAAUUCUCGGGUGUCAAGG
CACAGACAACACGCACCCACACAGACACAGAGGCAAGGGGUUGGGAUGGGGACAGGGUGCACAGCAGGGCGGGGUAGGACCCCAGCCCCU: 0.949
UCAAGUCCUGUGCUACACAUCGUAUGUACCGAAUCGGAAAGGUUUGGAAAAAGGAAAGUAUUAUGUUACGCCGUUCGGAUCUGCACUUCC: -1.04
CACAGACAACACGCACCCACACAGACACAGAGGGAAGGGGUUGGGAUGGGGAGAGGGUGCACAGCAGGGCGGGGUAGGACCCCAGCCCCU: 0.299
CAAGUCCUGUGCUACACAUCGUAUGUACCGAAUCGGCCCCGGGGCCCCGGCCCCGGAAAGUAUUAUGUUACGCCGUUCGGAUCUGCACUU: -2.19
UUCAUUCUUACUUUGAAUCUAGGAUUUUAUGGAAGACCUUGGGUUAUGGAACAGAGAAAAGAACUCUUUAGAAGGUAAAUCUUCAUUAUA: -2.31
CUGUGCUACACAUCGUAUGUACCGAAUCGGGGCCCCCCCGGGCCCCCCCGGGCCCCCCCGGAAAGUAUUAUGUUACGCCGUUCGGAUCUG: -0.431
UGGCCCUGGUGGCAUGCGGGGAGGAAGAGGUGGCCUAAUGGAUCGUGGUGGUCCCGGUGGAAUGUUCAGAGGUGGCCGUGGUGGAGACAG: 0.86
GUCCUGUGCUACACAUCGUAUGUACCGAAUCGGGAAAGGGAAAAAGGGUUUUUUUGGGAAAGUAUUAUGUUACGCCGUUCGGAUCUGCAC: -1.14
UGGCCCUGGUGGCAUGCGGGGAGGAAGAGGUGGCCUCAUGGAUCGUGGUGGUCCCGGUGGAAUGUUCAGAGGUGGACGUGGUGGAGACAG: -0.488
UGGCCCUGGUGGCAUGCGGGGAGGAAGAGGUGGCCUCAUGGAUAGUGGUGGUCCCGGUGGAAUGUUCAGAGGUGGCCGUGGUGGAGACAG: 0.0213

Mixed results
PhoQ, residues 284 288 289 292 302 303 TAVSDG — fold induction (PhoP, residues 12 14 15 18 19 NHTVL (Escherichia coli, UniProt P23836); Sort-seq, measured: YFP reporter; E. coli; PhoQ-PhoP variant library, added: 10 µM Mg2+; relative to: high Mg2+ state, higher = stronger signaling): 10.4

Repeated from above (study 2):
CAATCCAA: -0.00834
AGCGCTAC: 0.33
ATCGCACC: 0.0585
